Results pooled from the literature.
Every numbered part comes from another study and shows a few of its results, in no order. Substitutions count along the parent as printed.

Sample 1 — technique: protein binding microarray; molecule type: double-stranded DNA, one strand shown; medium: in vitro; tested at: not given; reference: not given; direction: higher = stronger binding; quantity: E-score
Target: Histone acetyltransferase KAT6A, winged helix 2, GST fusion (KAT6A, Homo sapiens, UniProt Q92794, residues 85-181)
Setting: 8-mer, flanks averaged, mean of 2 arrays, mostly near background
Target sequence (chain): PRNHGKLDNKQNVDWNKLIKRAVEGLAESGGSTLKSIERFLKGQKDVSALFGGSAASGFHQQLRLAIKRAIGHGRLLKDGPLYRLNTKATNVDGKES
CACCTCCG: 0.178
TCTTCTAA: -0.023
GATCGCCA: -0.0398
GACTCATC: -0.249
ACCCTACC: -0.199
ATTCGGTA: 0.074
TGCGGTAA: 0.123
CTTTAGAC: -0.0484
CCTAGTCG: -0.0608
ATAGAGGG: -0.0443
GTGACCAC: -0.0324
GCTGATAC: -0.0453
ACATATGT: -0.109
ACGATTGG: -0.0199
TACATCCA: 0.0386
CGGCTCGC: 0.0767
CGGTGACA: 0.054
GAGTAGTA: -0.116
GATCTGTA: -0.288
GGGACTCA: -0.0944
ACGATGGA: -0.0842
AACCACAT: -0.124
GCCGGTCA: 0.13
CCCCAGAG: 0.116

Sample 2 — target: CREB3L3, bZIP domain (human); technique: DHFR protein complementation; medium: yeast; reference: wild-type JUN-FOS pair; direction: higher = stronger binding; quantity: binding fitness
Setting: single substitutions, most at no-binding floor
Parent: JUN, bZIP domain (human); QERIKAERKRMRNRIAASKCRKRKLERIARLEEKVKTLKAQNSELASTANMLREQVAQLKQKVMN; partner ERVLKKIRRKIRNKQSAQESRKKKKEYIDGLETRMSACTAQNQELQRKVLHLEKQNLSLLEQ
V56W: -1.34 natural log
A57P: -1.46 natural log
S47Y: -1.25 natural log
T37P: -1.52 natural log
L52H: -1.45 natural log
E44L: -1.4 natural log
A49P: -1.48 natural log
K34I: -1.34 natural log
A57W: -1.46 natural log
R53A: -1.45 natural log
A49K: -1.16 natural log
K39P: -1.48 natural log
L52T: -1.55 natural log
E32L: -1.32 natural log
K39F: -1.48 natural log
S47G: -1.43 natural log
K39A: -1.45 natural log
A49E: -1.47 natural log
S47F: -1.34 natural log
E44M: -1.3 natural log
S47N: -1.51 natural log
K34M: -1.43 natural log
L38E: -1.48 natural log
K34P: -1.54 natural log
E44G: -1.52 natural log

Sample 3 — target: CCND1, cyclin fold, Cln2 fusion (human); technique: yeast growth competition, sequencing; medium: yeast; setting: weak parent motif; reference: not given; direction: higher = stronger binding; quantity: normalised enrichment score
Parent: WEE1 docking peptide (human); CTLRQKLIFSPCS
L7A: -0.104
T2A: 0.000509
R4A: 0.0938
C1A: 0.288
S13A: 0.0213
Q5A: 0.383
F9A: -0.128

Sample 4 — technique: universal PBM; molecule type: double-stranded DNA, one strand shown; medium: in vitro; tested at: 600 nM; direction: higher = stronger binding; quantity: E-score
Target: Sal-like protein 4, full length isoform A (SALL4, Homo sapiens, UniProt Q9UJQ4, residues 1-1053)
UniProt Q9UJQ4, sequence (whole entry, looked up): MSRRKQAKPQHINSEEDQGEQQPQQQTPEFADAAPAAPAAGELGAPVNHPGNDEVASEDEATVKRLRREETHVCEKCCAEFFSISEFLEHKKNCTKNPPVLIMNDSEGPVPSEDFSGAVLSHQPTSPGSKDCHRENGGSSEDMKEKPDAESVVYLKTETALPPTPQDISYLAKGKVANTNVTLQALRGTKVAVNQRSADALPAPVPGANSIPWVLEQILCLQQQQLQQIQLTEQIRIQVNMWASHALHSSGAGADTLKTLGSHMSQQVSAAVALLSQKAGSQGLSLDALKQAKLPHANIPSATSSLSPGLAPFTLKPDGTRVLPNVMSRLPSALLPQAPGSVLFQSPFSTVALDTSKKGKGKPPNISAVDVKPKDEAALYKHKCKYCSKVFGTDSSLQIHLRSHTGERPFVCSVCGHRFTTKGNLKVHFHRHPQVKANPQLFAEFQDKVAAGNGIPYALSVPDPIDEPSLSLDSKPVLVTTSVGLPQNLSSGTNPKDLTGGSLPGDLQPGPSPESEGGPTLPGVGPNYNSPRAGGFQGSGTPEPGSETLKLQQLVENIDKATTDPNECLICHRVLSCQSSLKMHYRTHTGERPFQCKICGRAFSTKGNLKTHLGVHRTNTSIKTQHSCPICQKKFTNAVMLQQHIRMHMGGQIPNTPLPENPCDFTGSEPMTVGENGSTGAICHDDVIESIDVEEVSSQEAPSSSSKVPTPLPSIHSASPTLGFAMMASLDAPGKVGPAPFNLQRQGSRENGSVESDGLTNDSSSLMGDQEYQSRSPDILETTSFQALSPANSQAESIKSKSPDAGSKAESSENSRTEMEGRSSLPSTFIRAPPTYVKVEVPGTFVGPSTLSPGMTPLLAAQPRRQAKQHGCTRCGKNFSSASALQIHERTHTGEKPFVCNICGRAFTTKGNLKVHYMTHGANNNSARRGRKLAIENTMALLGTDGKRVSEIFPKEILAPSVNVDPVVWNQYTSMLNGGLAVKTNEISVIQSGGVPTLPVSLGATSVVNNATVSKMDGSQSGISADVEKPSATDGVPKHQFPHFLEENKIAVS
Setting: 8-mer, flanks averaged, mean of replicates
TGAAATCA: 0.226
AGAACCTA: 0.00136
AGTGAGAT: -0.0133
ACCATCGT: -0.192
ACCGTAGC: -0.227
GAAGAGGA: -0.163
TCCCCTCA: -0.104
AGGTCCAG: -0.179
ACCGGCGC: -0.283
TCTTTCCA: -0.0207
AGAGAAAA: 0.0111
CTCATCCA: 0.0653
CGTTGAAC: -0.0738
CGGAACTA: -0.105
AACTGTTA: 0.22
ACATTGTG: 0.0424
CAAGCACG: -0.106
CCGCATCA: -0.143
CATAGGCG: -0.0608
ATCGTATG: 0.193

Sample 5 — technique: RNA Bind-n-Seq; molecule type: RNA; medium: in vitro; tested at: not given; reference: input RNA pool; direction: higher = stronger binding; quantity: bound/input enrichment
Target: RING finger protein unkempt homolog, zinc fingers 1-6, GST-SBP tag (UNK, Homo sapiens, UniProt Q9C0B0, residues 30-357)
Setting: RNA with constant flanks, human-mouse chimeric sites, ends assumed
Construct (chain): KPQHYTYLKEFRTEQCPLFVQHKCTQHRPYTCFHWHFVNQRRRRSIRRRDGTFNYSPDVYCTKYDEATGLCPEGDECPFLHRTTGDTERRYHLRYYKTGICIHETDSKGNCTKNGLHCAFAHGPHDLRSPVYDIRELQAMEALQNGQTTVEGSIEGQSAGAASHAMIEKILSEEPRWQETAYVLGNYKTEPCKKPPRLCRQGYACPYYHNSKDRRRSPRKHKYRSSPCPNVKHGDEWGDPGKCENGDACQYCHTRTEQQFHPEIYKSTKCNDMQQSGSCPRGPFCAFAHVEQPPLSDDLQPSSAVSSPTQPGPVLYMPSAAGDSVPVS
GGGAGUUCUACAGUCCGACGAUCAUAAAGGCUAUGUUGAGUGGUCCAGGUCAGUUUGCUGAGAAUGAAACCAACGAGGUCAAUUUUAGAGAGAUACCUUCACAUGUGCUAUCGAAAGUAUGCAUGUAUUUUACCUACAAGGUCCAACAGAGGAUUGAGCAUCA: 0.128 ratio
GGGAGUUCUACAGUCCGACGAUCGAUGAUAAUCACACAAACAAGUCACUGUUAUGUGACCAGCCUUGGGAUUCUUUUCCUGAUUAAUAUUCUCCCUGGAACCACUGGUCAAGGGGAAUCAAGACGACAAGAACCUGGGGACUUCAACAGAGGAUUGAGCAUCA: 0.15 ratio
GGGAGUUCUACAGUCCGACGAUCGAUGAUAAUCACACAAAUGUGGCACUUUUACAUGACCAGCCUUGGGAUUCUUUUCCUGAUUAAUAUUCUCCCUGGAACCACUGGUCAAGGGGAAUCAAGACGACAAGAACCUGGGGACUUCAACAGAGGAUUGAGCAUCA: 0.114 ratio
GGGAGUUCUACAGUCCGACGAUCGGGACUGAUUCAUUCCAAGGACAGGCCACCCCAUUUGGUGUUUGGAAUGAUGACAGUAUGGAAGGGCCUAGUCAAAAUGUUGAAGCUGAGUCAAUUCAGGAUGCCAUGAGUAUGGAAGAGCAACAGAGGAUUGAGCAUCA: 0.331 ratio
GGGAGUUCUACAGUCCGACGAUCCUCAUGGCUGCAGAAACAGGAAGUGGAAAAACUGGUGCUUUUAGUAUUCCCGUUAUCCAGAUAGUGUAUGAAACUCUGAAAGACCAACAGGAAGGAAAGAAAGGGAAAACAACAAUUAAACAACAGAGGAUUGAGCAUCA: 0.887 ratio
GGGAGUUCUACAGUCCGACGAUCUUUGUAUUCAUGUUAAGCACACGUGCUGGUGGUCUGGGCAUCAAUCUUGCGACUGCUGAUGUAGUCAUUUUAUAUGACUCAGAUUGGAAUCCGCAAGUUGAUCUUCAGGCUAUGGACCGUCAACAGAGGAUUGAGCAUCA: 0.0853 ratio
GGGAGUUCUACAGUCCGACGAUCAUGGAACAUUUUGAUGCGUCACUCAGUACCUAUUUCAAGGCCUUCCUGGGCCCCCGAGAUACAAGAGUCAAAGGAUGGUUUCUUCUGGACAAUUACAUCCCUACGUUUGUCUGUUCUGUUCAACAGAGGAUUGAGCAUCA: 0.135 ratio
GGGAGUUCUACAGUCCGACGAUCGUUGCCAGCUUCCGGUUGGCCUCCAUCCGGUUCUCUCAGUGCUACGUUGUCUCUACGCUCUCAAUCCGCCAUCCAACAAACAUGGAUCAGGUAAUGCAGUUUGUGGAGCCCAGCCGGCAGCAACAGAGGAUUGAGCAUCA: 0.115 ratio
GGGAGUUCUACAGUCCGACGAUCCGCUUGGAUGAGGCGGGUGUCACAGAUGAAGUGCUAGAUUCUGCCAUGCAAGCCUUCCUUCUGGAGGUUAUCGUUAAACAUGGGGAGCCGGCACCUUAUUUAUGUAAUAAAGAUCCUUUUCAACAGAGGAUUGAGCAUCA: 0.107 ratio
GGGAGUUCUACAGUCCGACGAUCGGCCUGGGACCGUCCUGGGCUAGUACAAAUAGCGGCAGUGGAGGCUCGAGAGGAAAGUUUGUUAGUGGAGGCAGUGGUAGAGGCCGUAUGUACGCUCCCUUUACUCGAUAGAUGUGUUCUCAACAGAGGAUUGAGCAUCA: 0.401 ratio
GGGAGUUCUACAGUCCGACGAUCGAAUCCUACUCAGGCGGUCCCACAACAACCAAGCUCACAGCAGCAGCAUCUUAGUCACAGUAGGGUAGUUUUGGGGCUCUGUGGCCAGGGUUUUAUUCACAUGCAGGUUUGGAAAAUGUACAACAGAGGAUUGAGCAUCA: 0.818 ratio

Sample 6 — technique: DHFR PCA, deep sequencing; medium: yeast; with: (+)-ABA 0 µM; reference: wild-type fitted maximum; direction: higher = stronger binding; quantity: relative binding score
Target: ABI1, truncated, D143A, DHFR fusion (Arabidopsis thaliana)
Setting: methotrexate growth selection, single substitutions
Parent: PYL1, truncated, DHFR fusion (Arabidopsis thaliana); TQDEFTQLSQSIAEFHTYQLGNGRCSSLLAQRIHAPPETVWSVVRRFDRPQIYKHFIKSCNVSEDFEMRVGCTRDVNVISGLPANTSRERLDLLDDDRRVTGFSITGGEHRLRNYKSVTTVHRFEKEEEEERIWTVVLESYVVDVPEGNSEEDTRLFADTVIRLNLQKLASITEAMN; partner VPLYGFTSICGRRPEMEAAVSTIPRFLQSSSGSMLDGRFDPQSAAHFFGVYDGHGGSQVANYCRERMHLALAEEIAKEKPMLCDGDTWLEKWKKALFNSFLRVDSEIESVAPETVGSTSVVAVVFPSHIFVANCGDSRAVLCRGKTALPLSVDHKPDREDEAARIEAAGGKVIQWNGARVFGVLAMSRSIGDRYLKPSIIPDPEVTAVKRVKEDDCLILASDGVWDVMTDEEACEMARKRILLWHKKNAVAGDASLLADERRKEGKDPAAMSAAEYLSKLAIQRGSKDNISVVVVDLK
G102H: -7.67%
S80E: -6.59%
L82V: 14.5%
E125Y: 9.34%
V70Q: 0.0632%
E129N: 25.8%
V78E: -1.62%
D95P: -0.568%
M176A: 7.37%
D159Q: -3.77%
L169R: 0.54%
F5C: 4.36%
V118K: -1.47%
N22R: 35.5%
H122T: 1.48%
E147G: -4.4%

Sample 7 — technique: protein-binding microarray; molecule type: double-stranded DNA, one strand shown; medium: in vitro; tested at: 2540 nM top; setting: 60-bp whole probe; with: salmon DNA 0.4 mg/ml; reference: random background probes; direction: higher = stronger binding; quantity: fitted relative affinity; shared flanks, not repeated: GCCTAGCAC … GTCTTGATTCGCTTGACGCTGCTG
Target: Interferon regulatory factor 3, full length, phosphomimetic (IRF3, Homo sapiens, UniProt Q14653, residues 1-427, S386D/S396D/S398D/S402D/T404D/S405D)
Construct (chain): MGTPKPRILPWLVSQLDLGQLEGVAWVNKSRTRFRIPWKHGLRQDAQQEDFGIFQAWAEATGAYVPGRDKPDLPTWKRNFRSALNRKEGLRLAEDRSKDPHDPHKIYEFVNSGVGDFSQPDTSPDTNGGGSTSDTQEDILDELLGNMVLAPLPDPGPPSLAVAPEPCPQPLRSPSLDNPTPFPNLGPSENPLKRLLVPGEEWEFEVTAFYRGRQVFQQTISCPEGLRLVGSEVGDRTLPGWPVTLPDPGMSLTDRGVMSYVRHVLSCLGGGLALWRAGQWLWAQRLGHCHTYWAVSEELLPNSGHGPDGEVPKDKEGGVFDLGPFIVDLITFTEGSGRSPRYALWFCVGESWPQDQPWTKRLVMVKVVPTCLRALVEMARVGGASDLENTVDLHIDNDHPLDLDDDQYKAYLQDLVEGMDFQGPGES
GACGATATCGGGTCTGGAGACGTGCTA: 0.211 z-score
TTAGGTATCTTTTTCCTTTAGTGCTAG: 3.42 z-score
TTAGCTTTCAGTATCGATTAGTGCTAG: 2.75 z-score
GTCCTTTTCTTTACTGATGGGTGCTAG: 3.79 z-score
GACGGTATCGTCTATCGGGACGTGCTA: 0.571 z-score
GGTTGTTTCTAATATTCTGCTGTGCTA: 1.32 z-score
TTAGGTATCGGAGTGGGTTAGTGCTAG: 1.18 z-score
TTAGTTATCCTACTGCTTTAGTGCTAG: 1.41 z-score
TTTTTTTTTTTTTTTTGTATGTGCTAG: 1.53 z-score
GACGGCCTGCTACTGCTGACGTGCTAG: -0.873 z-score
AGAGCTGTCCTTTGCAACAGGTGCTAG: 0.0947 z-score
TACGGTATCGGACTGGGGACGTGCTAG: 1.24 z-score
TTAGGTTTCGACTATCGGTGAGTGCTA: 2.36 z-score
TCACTTCTGGATTTTTTACTGTGCTAG: 1.02 z-score

Some of these lines once more (sample 1):
ATTCGGTA: 0.074
TGCGGTAA: 0.123
CTTTAGAC: -0.0484
CCTAGTCG: -0.0608
ATAGAGGG: -0.0443
GTGACCAC: -0.0324
GCTGATAC: -0.0453
ACATATGT: -0.109
ACGATTGG: -0.0199
TACATCCA: 0.0386
CGGCTCGC: 0.0767
CGGTGACA: 0.054
GAGTAGTA: -0.116
GATCTGTA: -0.288
GGGACTCA: -0.0944
ACGATGGA: -0.0842
